Results of several laboratories.
Each line is one published result; not all experiments were run side by side. Converted amounts (≈) assume the structure as drawn.

SMILES	test	system	conditions	quantity	value
CC1COC2=C1C(=O)C(=O)c1c2ccc2c1C(OC(=O)CNC(=O)CN)CCC2(C)C (mixture of isomers)		PBS	pH 5.5, 25 °C	thermodynamic solubility	360 µg/mL
CC[C@H](C)[C@H](NC(=O)[C@H](C)NC(=O)CNC(=O)[C@H](Cc1ccccc1)NC(=O)[C@H](CC(N)=O)NC(=O)[C@H](CC(N)=O)NC(=O)[C@H](CO)NC(=O)[C@H](CO)NC(=O)[C@H](Cc1c[nH]cn1)NC(=O)[C@@H](NC(=O)[C@H](CC(C)C)NC(=O)[C@H](Cc1ccccc1)NC(=O)[C@H](CC(N)=O)NC(=O)[C@H](C)NC(=O)[C@H](CC(C)C)NC(=O)[C@H](CCCNC(=N)N)NC(=O)[C@H](CCC(N)=O)NC(=O)[C@@H](NC(=O)[C@H](C)NC(=O)[C@@H]1CSSC[C@H](NC(=O)[C@@H](N)CCCCN)C(=O)N[C@@H](CC(N)=O)C(=O)N[C@@H]([C@@H](C)O)C(=O)N[C@@H](C)C(=O)N[C@@H]([C@@H](C)O)C(=O)N1)[C@@H](C)O[C@H]1O[C@H](CO[C@]2(C(=O)O)C[C@H](O)[C@@H](NC(C)=O)[C@H]([C@H](O)[C@H](O)CO)O2)[C@H](O)[C@H](O[C@@H]2O[C@H](CO)[C@H](O)[C@H](O[C@]3(C(=O)O)C[C@H](O)[C@@H](NC(C)=O)[C@H]([C@H](O)[C@H](O)CO)O3)[C@H]2O)[C@H]1NC(C)=O)C(C)C)C(=O)N[C@@H](CC(C)C)C(=O)N[C@@H](CO)C(=O)N[C@@H](CO)C(=O)N[C@H](C(=O)N[C@@H](CC(N)=O)C(=O)N[C@H](C(=O)NCC(=O)N[C@@H](CO)C(=O)N[C@@H](CC(N)=O)C(=O)N[C@H](C(=O)N[C@@H](Cc1ccc(O)cc1)C(N)=O)[C@@H](C)O)C(C)C)[C@@H](C)O		PBS	1 h, pH 7.4	thermodynamic solubility	624 µg/mL (≈ 129 µM)
CC(C)N1CCCCC1C(=O)NC(Cc1ccc(-c2ccccc2)cc1)B(O)O (stereo not drawn)	nephelometry	aqueous buffer	pH 6.8	solubility	67 µM
COCCOCCc1cc(NC(=O)C(C)(C)S(=O)(=O)C2CCOCC2)on1		water		solubility	> 510 µg/mL
CC[C@H](C)[C@@H]1NC(=O)[C@H](CCCNC(=N)N)NC(=O)C[C@@H](c2cccc3ccccc23)NC(=O)[C@@H]2CSSC[C@H](NC(=O)C[C@@H](c3cccc4ccccc34)NC(=O)[C@H](CCCNC(=N)N)NC(=O)[C@@H]3CCCN3C(=O)[C@@H]3CCCN3C1=O)C(=O)N[C@@H](Cc1ccccc1)C(=O)N1CCC[C@H]1C(=O)N[C@@H](CC(=O)O)C(=O)N[C@@H](CC(=O)O)C(=O)N[C@@H](Cc1ccccc1)C(=O)N2		water		solubility	< 1000 µg/mL
CC[C@H](C)[C@H](NC(=O)[C@H](C)NC(=O)CNC(=O)[C@H](Cc1ccccc1)NC(=O)[C@H](CC(N)=O)NC(=O)[C@H](CC(N)=O)NC(=O)[C@H](CO)NC(=O)[C@H](CO)NC(=O)[C@H](Cc1c[nH]cn1)NC(=O)[C@@H](NC(=O)[C@H](CC(C)C)NC(=O)[C@H](Cc1ccccc1)NC(=O)[C@H](CC(N)=O)NC(=O)[C@H](C)NC(=O)[C@H](CC(C)C)NC(=O)[C@H](CCCNC(=N)N)NC(=O)[C@H](CCC(N)=O)NC(=O)[C@@H](NC(=O)[C@H](C)NC(=O)[C@@H]1CSSC[C@H](NC(=O)[C@@H](N)CCCCN)C(=O)N[C@@H](CC(N)=O)C(=O)N[C@@H]([C@@H](C)O)C(=O)N[C@@H](C)C(=O)N[C@@H]([C@@H](C)O[C@H]2O[C@H](CO)[C@H](O)[C@H](O)[C@H]2NC(C)=O)C(=O)N1)[C@@H](C)O)C(C)C)C(=O)N[C@@H](CC(C)C)C(=O)N[C@@H](CO)C(=O)N[C@@H](CO)C(=O)N[C@H](C(=O)N[C@@H](CC(N)=O)C(=O)N[C@H](C(=O)NCC(=O)N[C@@H](CO)C(=O)N[C@@H](CC(N)=O)C(=O)N[C@H](C(=O)N[C@@H](Cc1ccc(O)cc1)C(N)=O)[C@@H](C)O)C(C)C)[C@@H](C)O		PBS	1 h, pH 7.4	thermodynamic solubility	50 µg/mL (≈ 12.2 µM)
Nc1cnc(Cl)cc1NC(=O)Nc1cc(C(F)F)ns1		PBS	24 h, pH 7.4	kinetic solubility	177 µM (≈ 56.6 µg/mL)
CC(C)(N)CNC(=O)Oc1cccc([C@H]2CCC[C@@]3(C2)OOC2(O3)C3CC4CC(C3)CC2C4)c1 (stereo partly drawn)		PBS	pH 7.4	kinetic solubility	103 µM (≈ 48.5 µg/mL)
CC1COC2=C1C(=O)C(=O)c1c2ccc2c1C(OC(=O)CNC(=O)C(N)CCC(=O)O)CCC2(C)C (mixture of isomers)		PBS	pH 7.4, 25 °C	thermodynamic solubility	1500 µg/mL
Cc1ccc(CNC(=O)c2ccn3c(-c4ccc(C#N)cc4)cnc3c2)cn1		aqueous buffer	pH 7.4	kinetic solubility	2.26 µM (≈ 0.83 µg/mL)
CC1COC2=C1C(=O)C(=O)c1c2ccc2c1C(OC(=O)CNC(=O)C(N)CO)CCC2(C)C (mixture of isomers)		PBS	pH 7.4, 25 °C	thermodynamic solubility	150 µg/mL
CC[C@H](C)[C@H](NC(=O)[C@H](C)NC(=O)CNC(=O)[C@H](Cc1ccccc1)NC(=O)[C@H](CC(N)=O)NC(=O)[C@H](CC(N)=O)NC(=O)[C@H](CO)NC(=O)[C@H](CO)NC(=O)[C@H](Cc1c[nH]cn1)NC(=O)[C@@H](NC(=O)[C@H](CC(C)C)NC(=O)[C@H](Cc1ccccc1)NC(=O)[C@H](CC(N)=O)NC(=O)[C@H](C)NC(=O)[C@H](CC(C)C)NC(=O)[C@H](CCCNC(=N)N)NC(=O)[C@H](CCC(N)=O)NC(=O)[C@@H](NC(=O)[C@H](C)NC(=O)[C@@H]1CSSC[C@H](NC(=O)[C@@H](N)CCCCN)C(=O)N[C@@H](CC(N)=O)C(=O)N[C@@H]([C@@H](C)O)C(=O)N[C@@H](C)C(=O)N[C@@H]([C@@H](C)O)C(=O)N1)[C@@H](C)O[C@H]1O[C@H](CO[C@]2(C(=O)O)C[C@H](O)[C@@H](NC(C)=O)[C@H]([C@H](O)[C@H](O)CO)O2)[C@H](O)[C@H](O[C@@H]2O[C@H](CO)[C@H](O)[C@H](O)[C@H]2O)[C@H]1NC(C)=O)C(C)C)C(=O)N[C@@H](CC(C)C)C(=O)N[C@@H](CO)C(=O)N[C@@H](CO)C(=O)N[C@H](C(=O)N[C@@H](CC(N)=O)C(=O)N[C@H](C(=O)NCC(=O)N[C@@H](CO)C(=O)N[C@@H](CC(N)=O)C(=O)N[C@H](C(=O)N[C@@H](Cc1ccc(O)cc1)C(N)=O)[C@@H](C)O)C(C)C)[C@@H](C)O		PBS	1 h, pH 7.4	thermodynamic solubility	680 µg/mL (≈ 149 µM)

For quick reference, copied from above:
SMILES	test	system	conditions	quantity	value
CC[C@H](C)[C@H](NC(=O)[C@H](C)NC(=O)CNC(=O)[C@H](Cc1ccccc1)NC(=O)[C@H](CC(N)=O)NC(=O)[C@H](CC(N)=O)NC(=O)[C@H](CO)NC(=O)[C@H](CO)NC(=O)[C@H](Cc1c[nH]cn1)NC(=O)[C@@H](NC(=O)[C@H](CC(C)C)NC(=O)[C@H](Cc1ccccc1)NC(=O)[C@H](CC(N)=O)NC(=O)[C@H](C)NC(=O)[C@H](CC(C)C)NC(=O)[C@H](CCCNC(=N)N)NC(=O)[C@H](CCC(N)=O)NC(=O)[C@@H](NC(=O)[C@H](C)NC(=O)[C@@H]1CSSC[C@H](NC(=O)[C@@H](N)CCCCN)C(=O)N[C@@H](CC(N)=O)C(=O)N[C@@H]([C@@H](C)O)C(=O)N[C@@H](C)C(=O)N[C@@H]([C@@H](C)O)C(=O)N1)[C@@H](C)O[C@H]1O[C@H](CO[C@]2(C(=O)O)C[C@H](O)[C@@H](NC(C)=O)[C@H]([C@H](O)[C@H](O)CO)O2)[C@H](O)[C@H](O[C@@H]2O[C@H](CO)[C@H](O)[C@H](O)[C@H]2O)[C@H]1NC(C)=O)C(C)C)C(=O)N[C@@H](CC(C)C)C(=O)N[C@@H](CO)C(=O)N[C@@H](CO)C(=O)N[C@H](C(=O)N[C@@H](CC(N)=O)C(=O)N[C@H](C(=O)NCC(=O)N[C@@H](CO)C(=O)N[C@@H](CC(N)=O)C(=O)N[C@H](C(=O)N[C@@H](Cc1ccc(O)cc1)C(N)=O)[C@@H](C)O)C(C)C)[C@@H](C)O		PBS	1 h, pH 7.4	thermodynamic solubility	680 µg/mL (≈ 149 µM)
